Experimental data gathered from unrelated publications.
Each numbered part is a random draw from the data of one study; scales do not carry over between parts. Substitutions count along the parent as printed.

Series 1
Target: Sal-like protein 4, full length isoform A (SALL4, Homo sapiens, UniProt Q9UJQ4, residues 1-1053)
UniProt Q9UJQ4, sequence (whole entry, looked up): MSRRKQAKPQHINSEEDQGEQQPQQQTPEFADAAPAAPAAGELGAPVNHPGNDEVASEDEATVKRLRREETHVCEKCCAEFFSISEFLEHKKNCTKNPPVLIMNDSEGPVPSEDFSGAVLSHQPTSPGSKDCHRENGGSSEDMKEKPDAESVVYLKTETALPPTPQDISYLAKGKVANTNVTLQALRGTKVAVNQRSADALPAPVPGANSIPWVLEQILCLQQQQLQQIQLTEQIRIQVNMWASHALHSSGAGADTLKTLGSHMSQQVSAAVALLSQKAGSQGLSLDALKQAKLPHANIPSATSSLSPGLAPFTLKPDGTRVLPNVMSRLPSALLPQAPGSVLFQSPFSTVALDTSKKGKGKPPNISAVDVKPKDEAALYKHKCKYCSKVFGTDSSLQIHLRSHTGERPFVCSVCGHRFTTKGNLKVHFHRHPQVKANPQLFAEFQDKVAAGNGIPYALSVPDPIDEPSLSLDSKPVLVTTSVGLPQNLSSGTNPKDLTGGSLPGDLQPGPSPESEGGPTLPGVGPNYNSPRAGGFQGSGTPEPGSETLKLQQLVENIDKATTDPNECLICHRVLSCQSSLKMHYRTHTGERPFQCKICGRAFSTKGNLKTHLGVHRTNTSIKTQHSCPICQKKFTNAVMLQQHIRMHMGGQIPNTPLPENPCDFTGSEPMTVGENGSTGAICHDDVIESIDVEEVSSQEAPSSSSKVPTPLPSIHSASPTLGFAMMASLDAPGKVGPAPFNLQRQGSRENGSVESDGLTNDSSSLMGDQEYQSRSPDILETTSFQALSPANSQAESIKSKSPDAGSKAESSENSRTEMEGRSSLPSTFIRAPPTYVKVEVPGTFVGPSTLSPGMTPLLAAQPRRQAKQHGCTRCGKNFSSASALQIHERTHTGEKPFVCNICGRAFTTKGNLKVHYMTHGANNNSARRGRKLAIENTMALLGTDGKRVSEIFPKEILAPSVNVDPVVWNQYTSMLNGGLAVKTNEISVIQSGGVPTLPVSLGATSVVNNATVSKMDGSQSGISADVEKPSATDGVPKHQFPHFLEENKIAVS
Method: universal PBM
Molecule type: double-stranded DNA, one strand shown
Matrix: in vitro
Concentration: 600 nM
Notes: 8-mer, flanks averaged, mean of replicates
Reading: higher = stronger binding
Endpoint: E-score
AAACGTGG: -0.1
CCTGGCAG: -0.181
AAAAACTA: 0.215
AGGTTCGG: -0.195
AAACATTT: 0.296
AGGTAAAG: 0.197
AAAATTGC: 0.311
CAGCTTGA: -0.0354
TAATTCTA: 0.289
AGACTACG: -0.194
AATCCTGC: 0.0194
GAATGCTA: 0.134
CACGGGAG: -0.134
GCAAAATA: 0.348
CGCTATGC: -0.13
CGGGCTTC: -0.405
AACACAAC: 0.159
GAGATGTA: 0.205
CTCATAAC: 0.199
CTCTTGGA: -0.0616
ATCCCACC: -0.183
AGATTGGC: -0.0648
ATCTAGAA: 0.237
CTAGTGAG: -0.189
GAGTAGCC: -0.251

Series 2
Target: Prothrombin, mature alpha-thrombin (F2, Homo sapiens, UniProt P00734)
Method: aptamer microarray, sandwich
Molecule type: DNA with 2'F-ANA
Matrix: in vitro
Concentration: 200 nM
Notes: whole 15-mer aptamer, many near background
With: Cy3 exosite-II aptamer, 400 nM
Reading: higher = stronger binding
Endpoint: mean fluorescence intensity
Sequence: GGTTGGTGTGGTTGG
2'F-ANA at 2 3 4 5 9: 113 a.u.
2'F-ANA at 7 8 10 12 13: 269 a.u.
2'F-ANA at 1 3 7 8 13 14: 119 a.u.
2'F-ANA at 1 4 5 6 7 9 13 14: 44.7 a.u.
2'F-ANA at 1 2 4 10 12 15: 57.6 a.u.
2'F-ANA at 2 3 4 7 9 11 12 15: 638 a.u.
2'F-ANA at 2 3 5 6 8 9 10 13: 49.5 a.u.
2'F-ANA at 1 2 3 4 5 7 8 9 10 12 13 14 15: 49.3 a.u.
2'F-ANA at 3 4 5 6 7 9 10 11 12 14 15: 67.5 a.u.
2'F-ANA at 1 3 4 5 10 14 15: 44.8 a.u.
2'F-ANA at 1 2 4 6 8 15: 181 a.u.
2'F-ANA at 1 2 6 7 8 10 12 13 15: 65.5 a.u.
2'F-ANA at 1 2 3 4 5 6 7 9 10 14 15: 55.9 a.u.
2'F-ANA at 3 4 5 6 7 15: 90.2 a.u.
2'F-ANA at 1 2 3 5 8 10 11 12: 135 a.u.
2'F-ANA at 1 4 6 7 8 9 10 12: 61.5 a.u.
2'F-ANA at 1 2 7 11 13 14 15: 53.3 a.u.
2'F-ANA at 1 4 8 9 13: 80.6 a.u.
2'F-ANA at 5 6 8 10 12 13: 48.4 a.u.
2'F-ANA at 2 6 8 11 13 14 15: 109 a.u.

Series 3
Target: Interferon regulatory factor 5, full length, phosphomimetic (IRF5, Homo sapiens, UniProt Q13568-2, residues 1-514, S451D/S453D/S456D/S462D)
Method: protein-binding microarray
Molecule type: double-stranded DNA, one strand shown
Matrix: in vitro
Concentration: 940 nM top
Notes: 60-bp whole probe
With: salmon DNA 0.4 mg/ml
Relative to: random background probes
Reading: higher = stronger binding
Endpoint: fitted relative affinity
All sequences stand within: GCCTAGCAC … GTCTTGATTCGCTTGACGCTGCTG
GTAGGTATCGGACTGGGTTAGTGCTAG: 3.28 z-score
TTAGGACTACTTTTCCTTTAGTGCTAG: -0.151 z-score
TTAGGACTGATACTGCTTTAGTGCTAG: 0.376 z-score
TTCGGTTTCCTTTCCCTTTAGTGCTAG: 2.5 z-score
TTTGCTTTACTGATGGCCCTGTGCTAG: -0.232 z-score
GGGGAGCAGGGTGGCCCTGTGTGCTAG: -0.426 z-score
TCTCCTTTCGGAATACCCTCGTGCTAG: 3.11 z-score
TTAGGTATCGAACTGGGTTAGTGCTAG: 2.95 z-score
GACGATTTCAGTAGCGAGACGTGCTAG: 0.357 z-score
TTACGTATCGACACTGGGTTAGTGCTA: 3.14 z-score
TTAGGTATCGGGTTTCGGGTAGTGCTA: 7.23 z-score
GACGATCTCAGTGTCGAGACGTGCTAG: -0.234 z-score
TCAGAACTGAGACTGGATTAGTGCTAG: 0.146 z-score
GACGGTCTCCTAATCCTGACGTGCTAG: 0.378 z-score
GACGGTTTCGACACTTGGGACGTGCTA: 6.57 z-score
TTTGGTTTCCTTTTCCTTTAGTGCTAG: 3.85 z-score
TCATTTTACAATTTGCTACTGTGCTAG: 0.578 z-score
AATTACATTTCATAGAGTGTGTGCTAG: 0.203 z-score
TTAGGTCTCCTCATCCTTTAGTGCTAG: 0.642 z-score
TCACTTCCCAATAATCTTACTGTGCTA: 1.2 z-score
TTATGTCTCGGTTTCGGTTAGTGCTAG: 10.3 z-score
AGATATCTGCACTCTCATGTGTGCTAG: 0.217 z-score
GACGGACTGCTTATCCTCACGTGCTAG: -0.418 z-score
GACGGTATCGGGAGTGGGGACGTGCTA: 3.47 z-score

Series 4
Target: CCNB2, cyclin fold, Cln2 fusion (human)
Method: yeast growth competition, sequencing
Matrix: yeast
Notes: weak parent motif
Relative to: not given
Reading: higher = stronger binding
Endpoint: normalised enrichment score
Parent: SAMHD1 docking peptide (human); ASKSRVQLFKDDP; partner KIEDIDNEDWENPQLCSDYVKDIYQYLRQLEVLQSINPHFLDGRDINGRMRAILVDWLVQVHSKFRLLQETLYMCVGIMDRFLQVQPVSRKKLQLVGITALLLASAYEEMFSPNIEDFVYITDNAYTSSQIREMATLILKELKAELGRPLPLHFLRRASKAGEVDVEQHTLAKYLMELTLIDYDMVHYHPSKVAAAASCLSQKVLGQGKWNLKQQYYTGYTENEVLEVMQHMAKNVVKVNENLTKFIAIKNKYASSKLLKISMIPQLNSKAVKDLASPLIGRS
K10I: 0.255
D12I: 0.138
S4A: 0.0989
L8E: 0.18
L8P: 0.331
S2M: 0.0915
R5T: 0.128
D12T: 0.133
K3C: 0.069
F9L: 0.613
K10Y: -0.255
V6D: -0.241
S2C: 0.0127
D11N: 0.309
D12H: 0.209
L8Y: 0.34
F9P: 0.306

Series 5
Target: ABI1, truncated, D143A, DHFR fusion (Arabidopsis thaliana)
Method: DHFR PCA, deep sequencing
Matrix: yeast
Notes: methotrexate growth selection, single substitutions
With: (+)-ABA 0.0091 µM
Relative to: wild-type fitted maximum
Reading: higher = stronger binding
Endpoint: relative binding score
Parent: PYL1, truncated, DHFR fusion (Arabidopsis thaliana); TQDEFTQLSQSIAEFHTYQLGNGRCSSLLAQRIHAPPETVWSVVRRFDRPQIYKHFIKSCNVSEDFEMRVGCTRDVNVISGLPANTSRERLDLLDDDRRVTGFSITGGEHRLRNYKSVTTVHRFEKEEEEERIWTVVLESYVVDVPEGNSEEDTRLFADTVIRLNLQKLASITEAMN
S171P: 9.33%
Q2T: 19.4%
H34Y: 33.8%
T1N: 26.1%
E38R: -0.526%
P36I: 1.81%
G71P: -6.99%
R69T: 19.3%
T106V: 74%
E89P: 2.46%
E89R: -0.21%
F66L: -1.25%

Series 6
Target: PABPC1L2, full length, GST fusion (mouse, UniProt A0ABA7IW68)
Method: RNAcompete
Molecule type: RNA
Matrix: in vitro
Concentration: 20 nM
Notes: 7-mer, probes averaged, single round
Relative to: mean of 7-mers
Reading: higher = stronger binding
Endpoint: 7-mer Z-score
Target sequence (chain): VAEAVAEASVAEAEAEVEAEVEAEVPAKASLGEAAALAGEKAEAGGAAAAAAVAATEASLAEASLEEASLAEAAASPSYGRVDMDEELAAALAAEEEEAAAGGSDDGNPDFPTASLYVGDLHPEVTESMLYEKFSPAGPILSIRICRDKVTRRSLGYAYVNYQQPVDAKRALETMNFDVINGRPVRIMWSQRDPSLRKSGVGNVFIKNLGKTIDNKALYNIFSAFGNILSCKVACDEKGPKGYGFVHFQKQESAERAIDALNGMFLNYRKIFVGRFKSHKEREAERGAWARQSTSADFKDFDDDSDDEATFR
UACAAGG: 0.0352
GCAAACA: 1.36
UUCAAUC: -0.235
CAGCUUA: -0.19
UCCUGGC: -0.202
GUUGUAG: -0.338
UUAGUUA: -0.18
CGUGCCU: -0.164
GGGCAGU: 0.43
UUGCACC: -0.24
CAGCCGA: -0.222
UCUGCCG: -0.293
AAGAGAG: 0.488
ACAGUAC: 0.0714
ACUAUUC: -0.238
CAAUGAA: 0.231
UCAGAUA: 0.0587
GCAAACG: 0.274
UGCAUGC: -0.253
ACUGAAU: -0.195
AUGUGAU: -0.161
CGCAUCA: -0.115
UAUCCGU: -0.338
UAAUUAC: -0.22

A few entries again (series 4):
K10I: 0.255
D12I: 0.138
S4A: 0.0989
L8E: 0.18
L8P: 0.331
S2M: 0.0915
R5T: 0.128
D12T: 0.133
K3C: 0.069
F9L: 0.613
K10Y: -0.255
V6D: -0.241
S2C: 0.0127
D11N: 0.309
